Measured values from different studies.
“And” joins repeats or separate records; there may be more than shown. ± gives the spread as reported.

C=C1C(=O)O[C@H]2[C@H]1CC/C(C)=C/CC[C@@]1(C)O[C@@H]21  EC50 (MYBPC3 iPSC cardiomyocytes; cytotoxicity; 24 h): 60.8 µM
O=C(Nc1cc(F)c(F)c(F)c1)c1ccc(F)c(S(=O)(=O)N2CCC(O)CC2)c1  CC50 (HepAD38): 8.12 ± 3.32 µM
Cc1cc(C(=O)NC(C)(C)COc2cccc3c2C(N)=NS(=O)(=O)N3)cc(C)n1  micronucleated binucleated cells (human peripheral blood lymphocytes; in vitro micronucleus test; 0.4% DMSO; 2000 µg/mL, 4 h): 0.3%
O=C(NCc1cc(O)c(O)c(Br)c1)c1cccc(CCl)c1  CC50 (Vero-E6; CCK-8; 24 h): 72.5 ± 14.4 µM
CC(C)C[C@H](NC(=O)[C@H](CCCNC(=N)N)NC(=O)CNC(=O)CNC(=O)[C@H](CCCNC(=N)N)NC(=O)CNC(=O)CNC(=O)CNC(=O)c1ccc2c(c1)C(=O)OC21c2ccc(O)cc2Oc2cc(O)ccc21)C(=O)N[C@@H](CO)C(=O)N[C@@H](Cc1ccc(O)cc1)C(=O)N[C@@H](CO)C(=O)N[C@@H](CCCNC(=N)N)C(=O)N[C@@H](CCCNC(=N)N)C(=O)N[C@@H](CCCNC(=N)N)C(=O)N[C@@H](Cc1ccccc1)C(=O)N[C@@H](CO)C(=O)N[C@H](C(=O)N[C@@H](CO)C(=O)N[C@H](C(=O)NCC(=O)N[C@@H](CCCNC(=N)N)C(N)=O)[C@@H](C)O)[C@@H](C)O  transport ratio (hCMEC/D3 monolayers; BBB permeability, Transwell, measured: CF-labelled compound; EGM-2 medium; concentration not given, 1 h, apical to basal; reference: fluorescence added apically): 3.8%
COc1cnc(Nc2cnnc3ccc(-c4ccc(N5CCN(C)CC5)cc4)cc23)nc1  TC50 (B10R mouse macrophages; cytotoxicity): 2.7 µM
COC[C@@H](CC(C)C)NC(=O)c1ccc(C)c(C)c1  mitotic index (primary human lymphocytes; 55 µg/mL, 20 h): 10.9
CC(=O)Nc1ccc(O)cc1  Papp A to B (MDCK; 1 µM, 90 min, pH 6.5 apical, 7.4 basolateral): 8.62 ×10⁻⁶ cm/s and 7.66 ×10⁻⁶ cm/s
CCCC(CCC)NC(=O)c1ccc2c(c1)OCO2  relative cell growth (CHO-WBL; 0.021 mg/mL, 3 h, with rat liver S9; reference: vehicle control): 100%
CNC(=O)c1cc(Oc2ccc(NC(=O)Nc3ccc(Cl)c(C(F)(F)F)c3)cc2)ccn1  CC50 (NIH/3T3; MTT; 24 h): 7.56 µM
CC(=O)Nc1cccc(-n2c(=O)n(C3CC3)c(=O)c3c(Nc4ccc(I)cc4F)n(C)c(=O)c(C)c32)c1  viability fraction (LoVo (KRAS G13D); resazurin; 1.56 nM, 72 h; reference: DMSO): 0.577 and 1
O=C(O)CCCOc1ccc(F)cc1-c1cc(-c2ccccc2C(F)(F)F)n(-c2ccccc2)n1  beat rate (human iPSC-derived cardiomyocytes; 20 µM): 45.9 ± 1.5 min⁻¹
COc1cc2ncnc(Nc3ccc(Oc4ccccc4)cc3C)c2cc1OC.O=C(O)C(F)(F)F  viability (A-375 (BRAF V600E); 3 µM, 72 h): 0.883 fraction of control
O=C(O)Cc1c[nH]c2ccc(O)cc12  host cell number (HCT-8 infected with Cryptosporidium parvum; Hoechst nuclei count; 1 mM, 24 h; reference: PBS): 0.968 ± 0.046
CCS(=O)(=O)Oc1ccc(C=NNC(=O)c2nc3ccccc3s2)cc1OC  cytotoxicity (BJ-1 fibroblasts; MTT; 100 µM, 48 h): 53.2%
CCn1c(=O)c2c(nc(/C=C/c3ccc(OC)c(OC)c3)n2C)n(CC)c1=O  Papp (MDCK; permeability basolateral to apical; 1 µM, 90 min, pH 7.4 apical to 7.4 basolateral): 16.1 ×10⁻⁶ cm/s and 22.6 ×10⁻⁶ cm/s
O=C(O)c1ccc(NS(=O)(=O)c2ccc(Cl)c(Cl)c2)cc1F  apparent permeability (RRCK cells; passive permeability): 0.9 ×10⁻⁶ cm/s
COc1ccc(C[C@H]2CO[C@H](c3ccc(OC)c(OC)c3)[C@H]2COC(=O)C=C(C)C)cc1OC  viability (HEK293/NF-κB-luc; CellTracker Green CMFDA; 20 µM, 4.5 h, serum-free medium; reference: stimulated untreated cells): 108 ± 5%
COc1cc2ncnc(Nc3ccc(Oc4ccccc4)c(C)c3C)c2cc1OC.Cl  viability (MeWo; cell growth, resazurin; 1 µM, 72 h, together with: 0 nM trametinib; reference: DMSO): 0.87 fraction of control
COc1ccc([C@H]2OC[C@H](Cc3ccc(C(C)(C)C)cc3)[C@@H]2CO)cc1OC  viability (HEK293/NF-κB-luc; CellTracker Green CMFDA; 20 µM, 4.5 h, serum-free medium; reference: stimulated untreated cells): 104 ± 5%
COc1ccc(S(=O)(=O)ON=C2C=C(C)C(=O)C(C)=C2)cc1  CC50 (SK-BR-3; cell viability): 11.6 µM
O=C(O)CCc1ccc(O)cc1  host cell number (HCT-8 infected with Cryptosporidium parvum; Hoechst nuclei count; 1 mM, 24 h; reference: PBS): 0.873 ± 0.107
O=C(NN=Cc1ccc(O)cc1)c1nc2ccccc2s1  cytotoxicity (BJ-1 fibroblasts; MTT; 100 µM, 48 h): 24.9%
CNCC(=O)O  host cell number (HCT-8 infected with Cryptosporidium parvum; Hoechst nuclei count; 1 mM, 24 h; reference: PBS): 0.978 ± 0.054
COc1ccc(Nc2cnnc3cc(-c4cnc(N5CCCN(C)CC5)nc4)ccc23)cc1Cl  TC50 (B10R mouse macrophages; cytotoxicity): 2.2 µM
COC(=O)c1cccc(Cn2ccc3ccc(-c4ccc5ccn(Cc6cccc(C(=O)O)c6)c5c4)cc32)c1  TC50 (MAGI-CCR5 cells; cytotoxicity; 48 h, 2% serum): 25.9 µM
Cc1c(C)c2c(c(C)c1O)CCC(C)(COc1ccc(CC3SC(=O)NC3=O)cc1)O2 (stereo not shown)  viability (THLE-2, 3D culture; MTT; 100 µM, 96 h): 43.3%
CC(C)n1nccc1-c1ncccc1COc1cccc(O)c1C=O  Papp (MDCK; permeability basolateral to apical; 1 µM, 90 min, pH 7.4 apical to 7.4 basolateral): 20.1 ×10⁻⁶ cm/s and 24.4 ×10⁻⁶ cm/s
O=C(O)CCC(=O)C(=O)O  host cell number (HCT-8 infected with Cryptosporidium parvum; Hoechst nuclei count; 1 mM, 24 h; reference: PBS): 0.923 ± 0.154
COc1ccc(C=NNC(=O)c2nc3ccccc3s2)cc1O  cytotoxicity (BJ-1 fibroblasts; MTT; 100 µM, 48 h): 15.4%
C[C@H]1O[C@@H](O[C@H]2[C@@H](O)C[C@H](O[C@H]3[C@@H](O)C[C@H](O[C@H]4CC[C@@]5(C)[C@H](CC[C@@H]6[C@@H]5C[C@@H](O)[C@]5(C)[C@@H](C7=CC(=O)OC7)CC[C@]65O)C4)O[C@@H]3C)O[C@@H]2C)C[C@H](O)[C@@H]1O  Papp A to B (MDCK-MDR1 cells; 5 µM, pH 7.4): 0.59 ×10⁻⁶ cm/s
CC(=O)Oc1ccccc1C(=O)O  beat rate (human iPSC-derived cardiomyocytes; 1 µM): 45.6 ± 1.8 min⁻¹
O=c1[nH]c(=O)c2[nH]cnc2[nH]1  host cell number (HCT-8 infected with Cryptosporidium parvum; Hoechst nuclei count; 1 mM, 24 h; reference: PBS): 0.952 ± 0.114
CCC(=CCc1c(O)cc2c(c1O)C(=O)C[C@@H](c1ccc(O)cc1)O2)CC  log IC50 (HeLa; cytotoxicity, MTT; 48 h, together with: S9 fraction): 1.36 log µM
CC[C@H](N)C(=O)O  host cell number (HCT-8 infected with Cryptosporidium parvum; Hoechst nuclei count; 1 mM, 24 h; reference: PBS): 0.983 ± 0.067
N.O=C(Nc1nc2ccccc2s1)NS(=O)(=O)O  Papp (MDCK-MDR1; MDR1 inhibited): 0.024 ×10⁻⁶ cm/s
Cc1cnc(Nc2ccc(OCCN3CCCC3)cc2)nc1Nc1cccc(S(=O)(=O)NC(C)(C)C)c1  mass recovery (MDCK; 1 µM, 90 min, pH 7.4 apical, 7.4 basolateral, apical to basolateral): 63 ± 3%
Cc1noc(C)c1Cn1cc(N2C(=O)CN(Cc3cccc(O)c3)C2=O)cn1  aberrant cells without gaps (human blood lymphocytes; 494.3 µg/mL, 3 h, with 2% S9): 0%
C[C@H]1[C@H](OC(=O)CCC(=O)O)O[C@@H]2O[C@@]3(C)CC[C@H]4[C@H](C)CC[C@@H]1[C@@]24OO3  highest non-toxic concentration (human iPSC-derived cardiomyocytes; contraction velocity; 3 d): > 50 µM
CCCCC(=O)O  host cell number (HCT-8 infected with Cryptosporidium parvum; Hoechst nuclei count; 1 mM, 24 h; reference: PBS): 0.863 ± 0.066
CC(C)C[C@H](NC(=O)[C@H](CC(C)C)NC(=O)[C@H](CCCNC(=N)N)NC(=O)[C@H](CCCCN)NC(=O)[C@H](CCCNC(=N)N)NC(=O)[C@H](CC(C)C)NC(=O)[C@H](CCCCN)NC(=O)[C@H](CCCNC(=N)N)NC(=O)[C@H](CC(C)C)NC(=O)[C@H](CC(C)C)NC(=O)[C@H](CC(C)C)NC(=O)[C@H](CCCNC(=N)N)NC(=O)[C@H](CCCCN)NC(=O)[C@H](CCCNC(=N)N)NC(=O)[C@H](CC(C)C)NC(=O)[C@H](CCCCN)NC(=O)[C@H](CCCNC(=N)N)NC(=O)[C@H](CC(C)C)NC(=O)CNC(=O)CNC(=O)CNC(=O)c1ccc2c(c1)C(=O)OC21c2ccc(O)cc2Oc2cc(O)ccc21)C(N)=O  transport ratio (hCMEC/D3 monolayers; BBB permeability, Transwell, measured: CF-labelled compound; EGM-2 medium; concentration not given, 2 h, apical to basal; reference: fluorescence added apically): 8.3%
C[C@@H](c1ncncc1F)[C@](O)(Cn1cncn1)c1ccc(F)cc1F  mass recovery (MDCK; 1 µM, 90 min, pH 6.5 apical, 7.4 basolateral, basolateral to apical): 96 ± 7%
O=C(O)CCc1ccccc1  host cell number (HCT-8 infected with Cryptosporidium parvum; Hoechst nuclei count; 1 mM, 24 h; reference: PBS): 0.878 ± 0.023

Some of these lines once more:
CC(C)C[C@H](NC(=O)[C@H](CC(C)C)NC(=O)[C@H](CCCNC(=N)N)NC(=O)[C@H](CCCCN)NC(=O)[C@H](CCCNC(=N)N)NC(=O)[C@H](CC(C)C)NC(=O)[C@H](CCCCN)NC(=O)[C@H](CCCNC(=N)N)NC(=O)[C@H](CC(C)C)NC(=O)[C@H](CC(C)C)NC(=O)[C@H](CC(C)C)NC(=O)[C@H](CCCNC(=N)N)NC(=O)[C@H](CCCCN)NC(=O)[C@H](CCCNC(=N)N)NC(=O)[C@H](CC(C)C)NC(=O)[C@H](CCCCN)NC(=O)[C@H](CCCNC(=N)N)NC(=O)[C@H](CC(C)C)NC(=O)CNC(=O)CNC(=O)CNC(=O)c1ccc2c(c1)C(=O)OC21c2ccc(O)cc2Oc2cc(O)ccc21)C(N)=O  transport ratio (hCMEC/D3 monolayers; BBB permeability, Transwell, measured: CF-labelled compound; EGM-2 medium; concentration not given, 2 h, apical to basal; reference: fluorescence added apically): 8.3%
COc1ccc(S(=O)(=O)ON=C2C=C(C)C(=O)C(C)=C2)cc1  CC50 (SK-BR-3; cell viability): 11.6 µM
CCS(=O)(=O)Oc1ccc(C=NNC(=O)c2nc3ccccc3s2)cc1OC  cytotoxicity (BJ-1 fibroblasts; MTT; 100 µM, 48 h): 53.2%
